Published values collected from several papers.
Every numbered part comes from another study and shows a few of its results, in no order.

Set 1 — method: universal PBM; molecule type: double-stranded DNA, one strand shown; matrix: in vitro; tested at: not given; direction: higher = stronger binding; measurement: E-score
Target: Sal-like protein 4, full length isoform B (SALL4, Homo sapiens, UniProt Q9UJQ4-2, residues 1-616)
Notes: 8-mer, flanks averaged, mean of replicates
Target sequence (chain): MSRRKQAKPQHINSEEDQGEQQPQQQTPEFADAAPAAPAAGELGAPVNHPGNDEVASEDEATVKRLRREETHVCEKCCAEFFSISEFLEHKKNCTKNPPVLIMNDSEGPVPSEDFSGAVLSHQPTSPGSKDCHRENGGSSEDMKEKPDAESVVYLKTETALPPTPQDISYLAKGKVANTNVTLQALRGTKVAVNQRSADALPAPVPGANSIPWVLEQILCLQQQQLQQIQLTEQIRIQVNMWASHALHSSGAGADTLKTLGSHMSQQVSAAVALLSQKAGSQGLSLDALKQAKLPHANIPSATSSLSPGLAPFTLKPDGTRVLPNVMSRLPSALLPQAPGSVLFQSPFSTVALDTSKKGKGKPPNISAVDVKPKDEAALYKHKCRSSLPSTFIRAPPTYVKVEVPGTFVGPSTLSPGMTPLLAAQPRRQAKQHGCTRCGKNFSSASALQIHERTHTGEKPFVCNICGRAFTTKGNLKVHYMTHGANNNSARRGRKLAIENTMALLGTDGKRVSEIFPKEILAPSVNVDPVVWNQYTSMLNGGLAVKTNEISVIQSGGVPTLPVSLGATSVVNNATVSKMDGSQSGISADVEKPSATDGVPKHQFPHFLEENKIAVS
Sequence = ATATGCGA; result = 0.239
Sequence = ATAAGTTG; result = 0.246
Sequence = CCGAGTCC; result = -0.141
Sequence = ATTGCGTC; result = 0.0901
Sequence = ATGGCCCG; result = -0.229

Set 2 — method: RNA Bind-n-Seq; molecule type: RNA; matrix: in vitro; tested at: 365 nM; relative to: no-protein control; direction: higher = stronger binding; measurement: RBNS enrichment (R)
Target: RNA binding protein fox-1 homolog 2, RRM domain, GST-SBP tag (RBFOX2, Homo sapiens, UniProt O43251-10, residues 100-194)
Notes: natural RNA segment, single round, ends assumed
Target sequence (chain): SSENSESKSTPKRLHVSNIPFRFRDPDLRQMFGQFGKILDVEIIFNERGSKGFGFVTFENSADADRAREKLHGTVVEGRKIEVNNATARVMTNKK
Sequence = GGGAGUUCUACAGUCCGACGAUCAUUUUCUUUGGCAUCUCUUUGCCCUUUCCUCUGGAGUCUUUCUUGAGUACUGAUUUCAUGUUGAAUUGUAUCCCACACAUCAUGGUCUGCAGCUUCUUUUUCACAUGUAGUGGAAUUCUCGGGUGCCAA; result = 0.386
Sequence = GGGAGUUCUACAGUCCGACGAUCUGCUCCCAGCCACACUACCAUCCCAAGUCCCUUGCGGCCCUCUCUGUCUUCCUCAUUGCACUGCAAUGGGCAGGGGUAGGAGAUUGGAGAUAAGGAUGAAGGGGGAGGAAUGGAAUUCUCGGGUGCCAA; result = 0.433
Sequence = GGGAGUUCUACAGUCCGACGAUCGAAGGGUCUUCACUCUGCCAUUCAGGGAUAAAGUUUAAUUUUAUUUUUCUACACAUUUUGCCAGGUCAGGCAUUUUGCUAGUAAGCAGGAUGCCCCCAACUCUCCCUGCCUGGAAUUCUCGGGUGCCAA; result = 0.26
Sequence = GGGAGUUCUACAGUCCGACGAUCCCUUUUAUUUUUUCCAAUAAAAAAGCAGUGGGAUGAAAAUUGCUUUGAUAUAUAGCAGGUAACAUUGAAGCUAUUCCAUAGCACUUAACUGUAGUGAAUACUGUGUCACCUGGAAUUCUCGGGUGCCAA; result = 0.393
Sequence = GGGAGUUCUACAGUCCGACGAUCCUUAGACCACUUUGAGUGCAGUUCUUCUACUCCCAUGCCUUCCCGAUCCGUCUCGGCUACUGCAGAGCACUGACUGCUCUGAGGAGAGGGAAGAGGGUCUGCUGGGGGUUUGGAAUUCUCGGGUGCCAA; result = 0.27
Sequence = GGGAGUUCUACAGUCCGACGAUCUUUAUUAAAAGCUUUUUGAACAUUAAAUUAUUAUUUCUUCAAUGCAUUUAGAAGUUAGAACAGAAAACAAAAAUGCCAGUCAGGCCUCUUCUCCCCAGGUGUACCAUUUUUGGAAUUCUCGGGUGCCAA; result = 2.75
Sequence = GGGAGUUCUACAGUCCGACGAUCCGGAUGUACACCGUAGAAGUGCCAUUCAGUUGUACACACAUCUUUCCUCCUCCACAUCAUCCCCACGACCCUUCUAACUCCUGGCCUCUUCCAGCCAAAACGGGAAAAGUUGGAAUUCUCGGGUGCCAA; result = 0.802
Sequence = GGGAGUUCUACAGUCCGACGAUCCUAUUUUUACAUACCCAAUUCCAGUAACUCUCAAAUCCAGUAUUUUACUCAAACUCUGUUGGGGCAUUUUACUAACCUUGUUCCCUUUUUGGCCUGUAAGACACUUUAGAUGGAAUUCUCGGGUGCCAA; result = 0.682

Set 3 — method: protein-binding microarray; molecule type: double-stranded DNA, one strand shown; matrix: in vitro; tested at: 0.8 µM; notes: whole 60-bp probe, no competitor; direction: higher = stronger binding; measurement: fluorescence intensity
Target: Centromere-binding protein 1, full length, N-terminal tag (CBF1, Saccharomyces cerevisiae, UniProt P17106, residues 1-351)
Chain of UniProt P17106 (whole entry, looked up): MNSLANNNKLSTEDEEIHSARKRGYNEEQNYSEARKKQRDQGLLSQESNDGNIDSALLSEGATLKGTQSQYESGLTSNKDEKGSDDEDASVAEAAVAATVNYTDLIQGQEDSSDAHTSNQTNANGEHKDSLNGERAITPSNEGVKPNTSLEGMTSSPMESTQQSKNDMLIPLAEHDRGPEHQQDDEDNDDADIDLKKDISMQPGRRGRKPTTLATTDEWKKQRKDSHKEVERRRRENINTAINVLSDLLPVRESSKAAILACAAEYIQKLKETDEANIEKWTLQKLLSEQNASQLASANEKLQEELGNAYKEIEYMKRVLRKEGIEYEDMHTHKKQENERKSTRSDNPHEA
Sequence = CTAATTGAAGATGTACAGGTGATTAATTACGTCTTCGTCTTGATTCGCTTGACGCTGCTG; result = 791 a.u.
Sequence = CTAATTTCACTGATTCACGTTTTCTACTTTGTTTTCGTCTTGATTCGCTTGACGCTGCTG; result = 613 a.u.
Sequence = CTAAGTTGACGAGTTCACGTTCATTCTTCCTTGTTCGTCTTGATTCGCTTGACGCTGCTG; result = 546 a.u.
Sequence = CCTAACTACTATACCCATGCGCAATAGCTTCGTACAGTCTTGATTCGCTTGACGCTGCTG; result = 523 a.u.
Sequence = GAATTTTCCTTACTACACGTTTTAAATAGAATATAGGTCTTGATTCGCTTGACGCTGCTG; result = 611 a.u.
Sequence = CTACATAGAAGAACGAACGTGAAGGTTTGTAGCTTCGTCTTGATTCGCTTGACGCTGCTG; result = 534 a.u.
Sequence = GAAACGACTTGAACTTACGTGATTATATGTATATAGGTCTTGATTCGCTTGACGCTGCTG; result = 545 a.u.
Sequence = CTAAAATGCCCCCCTCAGGTGTCGTTAAATAAGTTCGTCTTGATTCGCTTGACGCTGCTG; result = 514 a.u.
Sequence = GAAAAAAATTTTCGCCTCGTGGCCCGAAACACGTAGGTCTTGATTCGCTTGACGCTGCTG; result = 791 a.u.
Sequence = GAAATATAAGATTACCACGAGCGAGAGTAAAAATAGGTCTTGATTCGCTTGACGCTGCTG; result = 588 a.u.

Single results of other studies
Molecule = PhoQ, residues 284 288 289 292 302 303 TNASYF; target = PhoP, residues 12 14 15 18 19 TPLRH (Escherichia coli, UniProt P23836); assay = Sort-seq, measured: YFP reporter; test system = E. coli; conditions = PhoQ-PhoP variant library, together with: 10 µM Mg2+; scale = relative to: high Mg2+ state, higher = stronger signaling; measurement = fold induction; result = 1.26
